Results from different studies.
Compare with care: the assays were run in different laboratories. ± gives the spread as reported. Values after ≈ are worked out from the molar mass of the structure shown.

Structure (SMILES) | tested on | assay | system | setting | measurement | value
O=C(CCCCCCc1ccc(O)c(O)c1)c1c(O)cccc1O | SARS-CoV-2 | viral replication, MTT | HEK293T ACE2, Delta B.1.617.2 | – | EC50 | 4300 nM
CC1OC(OC2C(OC(=O)C34CCC(C)(C)CC3C3=CCC5C6(C)CCC(OC7OC(CO)C(O)C(O)C7O)C(C)(C)C6CCC5(C)C3(C)CC4O)OCC(O)C2O)C(O)C(O)C1OC1OCC(O)C(OC2OCC(O)C(OC3OCC(O)C(O)C3O)C2O)C1O (stereo not drawn) | SARS-CoV-2 | viral infection | Vero cells, gamma P.1 | – | IC50 | 1460 nM
CC(C)CC(C(=O)N1CC2(CC1C#N)C(=O)Nc1ccccc12)N(C)C(=O)c1cc2c(F)cc(F)c(F)c2[nH]1 (stereo not drawn) | SARS-CoV-2 | viral replication, infectious virus | Vero E6-TMPRSS2, Omicron variant | 0.0333 µM | inhibition | 44%
O=c1cc(-c2ccc(O)cc2)oc2c([C@@H]3OC[C@H](O)[C@H](O)[C@H]3O)c(O)c([C@@H]3O[C@H](CO)[C@@H](O)[C@H](O)[C@H]3O)c(O)c12 | Replicase polyprotein 1ab, papain-like protease K157A (rep, Severe acute respiratory syndrome coronavirus 2, UniProt P0DTD1, K1720A) | enzyme activity, inhibitor | – | concentration not given, PLpro K157A mutant | inhibition | 52.3%
COc1ccc2ncc(F)c(C(O)C[C@H]3OC[C@H](NCc4ccc(Cl)c(Cl)c4)CO3)c2n1 (stereo partly drawn) | Mycobacterium tuberculosis | – | H37Rv katG deletion | – | MIC | 0.125 µg/mL (≈ 0.259 µM)
CCN(c1nc(N)c(C(=O)NC(=N)N)nc1Cl)C(C)C | Calu-3 | pseudoparticle entry | SARS-CoV-2 spike pseudotyped particles | – | IC50 | > 30000 nM
Nc1ncc(CNC23CC4CC(CC(C4)C2)C3)s1 | Matrix protein 2 (Influenza A virus, UniProt P0DOF5, S31N) | proton channel activity, inhibitor | Influenzavirus A, S31N mutant | 100 µM | inhibition | 25%
COc1ccc2ncc(F)c(C[C@H](O)[C@H]3OC[C@H](NCc4ccc5c(c4)OCCO5)CO3)c2c1 | Mycobacterium tuberculosis | – | H37Rv katG deletion | – | MIC | 1 µg/mL (≈ 2.13 µM)
CC(C)C(=O)OC[C@H]1O[C@@](C#N)(n2ccc(N)nc2=O)[C@H](O)[C@@H]1O | SARS-CoV-2 | viral replication | Calu-3, Alpha | – | EC50 | 800 ± 40 nM
O=C(NC1CCN(c2ncnc3[nH]cnc23)CC1)c1cccc(NS(=O)(=O)c2ccc(C(F)(F)F)cc2)c1 | Replicase polyprotein 1ab, NSP14 (rep, Severe acute respiratory syndrome coronavirus 2, UniProt P0DTD1, P6318L) | thermal stabilisation | – | – | ΔTm | 5.9 °C
CC(C)(C)[C@H](NC(=O)NC1(CS(=O)(=O)C(C)(C)C)CCCCC1)C(=O)N1C[C@H]2[C@@H]([C@H]1C(=O)N[C@H](C#N)C[C@@H]1CCNC1=O)C2(C)C | Replicase polyprotein 1ab, main protease H41A (rep, Severe acute respiratory syndrome coronavirus 2, UniProt P0DTD1, H3304A) | – | – | pH 7.2 | ΔH | -1.47 ± 0.01 kcal/mol
COc1ccc(NC(=O)c2ccc(-c3ccc(C(=N)N)cc3C)cc2)cc1N1CCN(C)CC1 | Calu-3 | pseudoparticle entry | SARS-CoV-2 spike pseudotyped particles | – | IC50 | 350 nM

Excerpt of the above:
Structure (SMILES) | tested on | assay | system | setting | measurement | value
O=C(CCCCCCc1ccc(O)c(O)c1)c1c(O)cccc1O | SARS-CoV-2 | viral replication, MTT | HEK293T ACE2, Delta B.1.617.2 | – | EC50 | 4300 nM
CC1OC(OC2C(OC(=O)C34CCC(C)(C)CC3C3=CCC5C6(C)CCC(OC7OC(CO)C(O)C(O)C7O)C(C)(C)C6CCC5(C)C3(C)CC4O)OCC(O)C2O)C(O)C(O)C1OC1OCC(O)C(OC2OCC(O)C(OC3OCC(O)C(O)C3O)C2O)C1O (stereo not drawn) | SARS-CoV-2 | viral infection | Vero cells, gamma P.1 | – | IC50 | 1460 nM
